Measurements from different studies.
“And” joins repeats or separate records; there may be more than shown. ± marks the error that the study gave.
PDGFRB: Platelet-derived growth factor receptor beta (PDGFRB, Homo sapiens, UniProt P09619)
CTSL: Procathepsin L (CTSL, Homo sapiens, UniProt P07711)

NS(=O)(=O)c1ccc(NC(=O)NN[C@@H]2O[C@H](CO)[C@@H](O)[C@H](O)[C@@H]2O)cc1  IC50 (CA2 (Homo sapiens, UniProt P00918); enzyme activity, inhibitor): 15 nM
COc1cc2nccc(Oc3ccc(NC(=S)N4CCN(C)CC4)c(Cl)c3)c2cc1C(N)=O  IC50 (PDGFRB): 222 nM
CC(C)C1NC(=O)C(Cc2ccccc2)NC(=O)C(CCCCCC(=O)C2CO2)NC(=O)C2CCCCN2C1=O (centres unmarked)  IC50 (Histone deacetylase (Plasmodium falciparum 3D7, UniProt Q7K6A1); enzyme activity, inhibitor): 15 nM
N#Cc1nc(N2CCOCC2)nc(N(Cc2ccc(F)cc2)CC2CCNCC2)n1  IC50 (CTSL; enzyme activity, inhibitor, fluorescence): 960 nM
COC(=O)C1=CNC=C(C(=O)OC)C1c1ccc(F)c(C(F)(F)F)c1  IC50 (KCNN4 (Homo sapiens, UniProt O15554, S314P); inside-out patch clamp; gain-of-function mutant, added: 1 µM free Ca2+): < 20 nM
CC(=O)C12NC(C)(C)CC1(C)C(=O)C1=C2c2c(c3c4n2C(C)(C)CC2=C4C4(CC(C)(C)NC(C)(C4)C2=O)CC3(C)C)C(=O)C(C)(C)N1 (single isomer, unassigned; (-))  IC50 (KCNA3 (Homo sapiens, UniProt P22001); ion current, inhibitor): 1500 nM
Oc1c(C(Nc2nccs2)c2ccccc2OCc2ccccc2)ccc2cccnc12 (centres unmarked)  IC50 (Genome polyprotein, NS2B-NS3 protease (Dengue virus type 2, UniProt P14340); enzyme activity, inhibitor; 0.1% CHAPS, added: Bz-Nle-Lys-Arg-Arg-AMC substrate): 3670 ± 80 nM
COCCNC(=O)c1cc2c(Oc3ccc(NC(=S)NC4CC4)c(Cl)c3)ccnc2cc1OC  IC50 (PDGFRB): 241 nM
NC(=O)NC(c1ccccc1)(c1ccccc1)c1ccccc1  IC50 (KCNN4 (Homo sapiens, UniProt O15554); ion current, inhibitor, patch clamp): 8000 nM
CCOC(=O)c1cc2cc3cc(Cl)ccc3nc2s1  IC50 (PTPN11 (Homo sapiens, UniProt Q06124); enzyme activity, inhibitor, fluorescence): 12200 nM
O=C(NC1CCCC1)c1cccc(S(=O)(=O)NC2CCCC2)c1  IC50 (Ectonucleoside triphosphate diphosphohydrolase 2 (Homo sapiens, UniProt Q9Y5L3); enzyme activity, inhibitor, absorbance): 46900 nM
O=C1C2=C(Nc3ccccc3SC2C2CC2)c2ccccc21 (racemic)  IC50 (Cytochrome b (MT-CYB, Homo sapiens, UniProt P00156); enzyme activity, inhibitor): 1090 nM
C=CC(=O)Nc1cccc(Cn2ncc3cnc(Nc4cnn(CCOC)c4)nc32)c1  IC50 (BMX (Homo sapiens, UniProt P51813); enzyme activity, inhibitor, FRET): 3.18 nM
COc1cc2nccc(Oc3ccc(NC(=S)NCc4ccccc4)c(Cl)c3)c2cc1C(N)=O  IC50 (PDGFRB): 361 nM
CC(C)(C)NCCCNC(=O)c1ccnc(C(F)(F)F)c1  IC50 (Chromobox protein homolog 7 (Homo sapiens, UniProt O95931); methyl-lysine reader binding, inhibitor, AlphaScreen): > 100000 nM
Oc1ccc(C2CNCc3sccc32)cc1O (centres unmarked)  IC50 (Carbamate kinase (Giardia intestinalis, UniProt A8BB85); enzyme activity, ATP luminescence): 10300 nM
N#Cc1nc(N2CCOCC2)nc(N(Cc2ccc(F)cc2)CC2CCCNC2)n1 (centres unmarked)  IC50 (CTSL; enzyme activity, inhibitor, fluorescence): 1200 nM
COCC1CN(C2CCN(c3cc(OC)c(Nc4ncc(Br)c(Nc5ccc6c(c5P(C)(C)=O)OCCO6)n4)cc3C)CC2)C1  IC50 (EGFR (Homo sapiens, UniProt P00533, del746-750); enzyme activity, inhibitor, TR-FRET): < 1.5 nM
COc1ccc(Nc2nc(N)c(C(=O)c3ccc(OC)cc3)s2)cc1  IC50 (GSK3 (Trypanosoma brucei, UniProt Q388M1); enzyme activity, inhibitor, radiometric): 100 nM and < 100 nM
COc1cc(COc2ccc3c(C)cc(=O)oc3c2)cc(OC)c1OC  IC50 (Nucleoside transporter 1 (Plasmodium vivax, UniProt A5K8B0); yeast growth; purine auxotrophic yeast expressing target; 15 to 17 h, added: adenosine 1 mM): 77 ± 8 nM
Cn1c(=O)c2c(nc(OC3CCN(C(=O)C4CC4)CC3)n2Cc2cccc(F)c2)n(C)c1=O  IC50 (ALDH1A1 (Homo sapiens, UniProt P00352)): 285 ± 101 nM
COc1cc2nccc(Oc3ccc(NC(=S)NC4CCC(F)(F)CC4)c(Cl)c3)c2cc1C(N)=O  IC50 (PDGFRB): 167 nM
O=C(O)/C=C\C(=O)NNC(=O)c1nccc2ccccc12  IC50 (Egl nine homolog 1 (EGLN1, Homo sapiens, UniProt Q9GZT9); inhibitor, AlphaScreen; bimodal curve, rough estimate, added: 2 µM 2-oxoglutarate): > 300000 nM
CC(C)[C@H](NC(=O)[C@@H]1CCCN1C(=O)[C@H](CCCNC(=N)N)NC(=O)[C@H](CS)NC(=O)[C@H](Cc1c[nH]c2ccccc12)NC(=O)[C@H](CCCNC(=N)N)NC(=O)[C@@H](Cc1ccccc1)NC(=O)[C@H](Cc1c[nH]cn1)NC(=O)[C@H](CCC(=O)O)NC(=O)[C@H](CS)NC(=O)[C@H](CS)NC(=O)[C@H](CCCCN)NC(=O)[C@@H]1CC(=O)N[C@@H](CCCNC(=N)N)C(=O)NCC(=O)N[C@@H](CC(=O)O)C(=O)N[C@H](Cc2ccc(O)cc2)C(=O)N1)C(N)=O  IC50 (Integrin alpha-V/beta-3 (Homo sapiens, UniProt P05106+P06756); ligand displacement, radioligand): 403 nM
COC(=O)C1=COC(OC2OC(CO)C(O)C(O)C2O)C2C(C)OC(O)CC12 (centres unmarked)  IC50 (MAL12 (Saccharomyces cerevisiae S288c, UniProt P53341); enzyme activity, inhibitor, absorbance): > 100000 nM
COc1cc2nccc(Oc3ccc(NC(=S)NCc4ccc(F)cc4)c(Cl)c3)c2cc1C(N)=O  IC50 (PDGFRB): 85.9 nM
COc1ccc(-c2cc(C(F)(F)F)nc(S(=O)(=O)NCC(=O)Nc3ccc(C)cc3)n2)cc1  IC50 (WRN (Homo sapiens, UniProt Q14191); DNA unwinding, inhibitor, TAMRA dequenching; 10 nM full-length enzyme, 500 nM trap DNA, added: 50 nM DNA substrate, 60 µM ATP): 313 nM
CC(C)(C)OC(=O)N1CCC(C(=O)N[C@@H](Cc2ccccc2)C(=O)O)(c2ccccc2)CC1  IC50 (Gag-Pol polyprotein, integrase (gag-pol, Human immunodeficiency virus 1, UniProt P12497); integrase catalytic activity, inhibitor, HTRF; LEDGF/p75-dependent integration): 600000 nM
O=C(NO)c1ccc(Cn2sc3ccccc3c2=O)cc1  IC50 (HDAC10 (Homo sapiens, UniProt Q969S8); enzyme activity, inhibitor): > 10000 nM
COc1cc2nccc(Oc3ccc(NC(=S)NC4CC4)c(Cl)c3)c2cc1C(=O)N(C)C  IC50 (KDR (Homo sapiens, UniProt P35968)): 503 nM
O=S(=O)(Nc1ccc(Oc2ncccc2-c2ccnc(N[C@H]3CCCNC3)n2)cc1F)c1ccccc1Cl  IC50 (Serine/threonine-protein kinase/endoribonuclease IRE1, RNase domain (ERN1, Homo sapiens, UniProt O75460); RNase activity, inhibitor; added: XBP1 mini-substrate): 120 ± 10 nM
CN[C@H](CC(C)C)C(=O)N[C@H]1C(=O)N[C@@H](CC(N)=O)C(=O)N[C@H]2C(=O)N[C@H]3C(=O)N[C@H](C(=O)N[C@H](C(=O)O)c4cc(O)cc(O)c4-c4cc3ccc4O)[C@H](O)c3ccc(c(Cl)c3)Oc3cc2cc(c3O[C@@H]2O[C@H](CO)[C@@H](O)[C@H](O)[C@H]2O[C@H]2C[C@](C)(NCc3ccc(C(=O)OCCCCCCN(Cc4ccccn4)Cc4ccccn4)cc3)[C@H](O)[C@H](C)O2)Oc2ccc(cc2Cl)[C@H]1O  IC50 (metallo-beta-lactamase L1; enzyme activity, inhibitor; absorbance and fluorescence): 10200 to 11000 nM
COc1cc2ncnc(Oc3ccc(Nc4nccc5[nH]cc(-c6cccc(F)c6)c(=O)c45)cc3F)c2cc1OC  IC50 (MET (Homo sapiens, UniProt P08581); kinase activity, inhibitor, HTRF): 67.6 nM
O=C(/C=C/c1ccc(O)cc1)c1c(O)cc(O)cc1O  IC50 (CTSL; enzyme activity, inhibitor, fluorescence): > 100000 nM
C=CC(=O)NCc1ccc(C(=O)Nc2nc(-c3ccc4c(c3)Cc3ccccc3-4)cs2)cc1  IC50 (GCLC/GCLM (Homo sapiens, UniProt P48506+P48507); enzyme activity, inhibitor; 30 min preincubation, 37 °C): 6800 nM

Some of these lines once more:
COc1ccc(Nc2nc(N)c(C(=O)c3ccc(OC)cc3)s2)cc1  IC50 (GSK3 (Trypanosoma brucei, UniProt Q388M1); enzyme activity, inhibitor, radiometric): 100 nM and < 100 nM
O=C(O)/C=C\C(=O)NNC(=O)c1nccc2ccccc12  IC50 (Egl nine homolog 1 (EGLN1, Homo sapiens, UniProt Q9GZT9); inhibitor, AlphaScreen; bimodal curve, rough estimate, added: 2 µM 2-oxoglutarate): > 300000 nM
CC(C)(C)NCCCNC(=O)c1ccnc(C(F)(F)F)c1  IC50 (Chromobox protein homolog 7 (Homo sapiens, UniProt O95931); methyl-lysine reader binding, inhibitor, AlphaScreen): > 100000 nM
CC(C)[C@H](NC(=O)[C@@H]1CCCN1C(=O)[C@H](CCCNC(=N)N)NC(=O)[C@H](CS)NC(=O)[C@H](Cc1c[nH]c2ccccc12)NC(=O)[C@H](CCCNC(=N)N)NC(=O)[C@@H](Cc1ccccc1)NC(=O)[C@H](Cc1c[nH]cn1)NC(=O)[C@H](CCC(=O)O)NC(=O)[C@H](CS)NC(=O)[C@H](CS)NC(=O)[C@H](CCCCN)NC(=O)[C@@H]1CC(=O)N[C@@H](CCCNC(=N)N)C(=O)NCC(=O)N[C@@H](CC(=O)O)C(=O)N[C@H](Cc2ccc(O)cc2)C(=O)N1)C(N)=O  IC50 (Integrin alpha-V/beta-3 (Homo sapiens, UniProt P05106+P06756); ligand displacement, radioligand): 403 nM
